Published values pooled from the literature.
Every numbered part comes from another study and shows a few of its results, in no order.
UniProt Q96PY6, sequence (whole entry, looked up): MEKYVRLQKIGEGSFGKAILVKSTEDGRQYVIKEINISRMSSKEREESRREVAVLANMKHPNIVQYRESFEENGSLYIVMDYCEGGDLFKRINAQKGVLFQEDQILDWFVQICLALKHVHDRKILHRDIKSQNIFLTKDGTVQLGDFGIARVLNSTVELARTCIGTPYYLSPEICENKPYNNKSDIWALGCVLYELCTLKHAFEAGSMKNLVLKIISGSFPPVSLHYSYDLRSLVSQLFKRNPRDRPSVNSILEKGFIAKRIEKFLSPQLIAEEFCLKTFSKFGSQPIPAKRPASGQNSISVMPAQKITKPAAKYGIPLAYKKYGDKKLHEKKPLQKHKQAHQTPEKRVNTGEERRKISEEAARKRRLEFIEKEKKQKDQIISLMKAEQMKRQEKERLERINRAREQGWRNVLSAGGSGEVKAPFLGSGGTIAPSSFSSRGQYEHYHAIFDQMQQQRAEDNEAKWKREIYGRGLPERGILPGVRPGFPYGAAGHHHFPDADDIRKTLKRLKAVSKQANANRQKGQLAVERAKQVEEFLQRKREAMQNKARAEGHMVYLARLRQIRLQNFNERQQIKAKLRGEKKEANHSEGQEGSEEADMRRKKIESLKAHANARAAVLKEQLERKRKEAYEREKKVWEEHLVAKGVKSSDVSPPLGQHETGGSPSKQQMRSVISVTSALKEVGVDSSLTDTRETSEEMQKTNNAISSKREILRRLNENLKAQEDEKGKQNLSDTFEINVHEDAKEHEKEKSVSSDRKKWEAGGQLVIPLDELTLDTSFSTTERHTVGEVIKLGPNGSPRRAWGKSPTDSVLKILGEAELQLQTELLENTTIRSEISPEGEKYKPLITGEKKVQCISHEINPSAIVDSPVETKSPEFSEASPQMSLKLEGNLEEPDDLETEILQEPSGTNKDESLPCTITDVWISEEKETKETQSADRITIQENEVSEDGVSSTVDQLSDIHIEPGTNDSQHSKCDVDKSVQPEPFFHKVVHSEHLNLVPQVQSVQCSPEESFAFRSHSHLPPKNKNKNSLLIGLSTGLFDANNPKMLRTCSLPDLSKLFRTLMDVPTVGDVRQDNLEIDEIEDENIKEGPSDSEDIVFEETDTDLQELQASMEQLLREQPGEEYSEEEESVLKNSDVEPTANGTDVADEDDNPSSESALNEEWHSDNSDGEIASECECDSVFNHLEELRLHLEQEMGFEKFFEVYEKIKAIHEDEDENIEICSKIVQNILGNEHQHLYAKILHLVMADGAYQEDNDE
UniProt Q7KZI7, sequence (whole entry, looked up): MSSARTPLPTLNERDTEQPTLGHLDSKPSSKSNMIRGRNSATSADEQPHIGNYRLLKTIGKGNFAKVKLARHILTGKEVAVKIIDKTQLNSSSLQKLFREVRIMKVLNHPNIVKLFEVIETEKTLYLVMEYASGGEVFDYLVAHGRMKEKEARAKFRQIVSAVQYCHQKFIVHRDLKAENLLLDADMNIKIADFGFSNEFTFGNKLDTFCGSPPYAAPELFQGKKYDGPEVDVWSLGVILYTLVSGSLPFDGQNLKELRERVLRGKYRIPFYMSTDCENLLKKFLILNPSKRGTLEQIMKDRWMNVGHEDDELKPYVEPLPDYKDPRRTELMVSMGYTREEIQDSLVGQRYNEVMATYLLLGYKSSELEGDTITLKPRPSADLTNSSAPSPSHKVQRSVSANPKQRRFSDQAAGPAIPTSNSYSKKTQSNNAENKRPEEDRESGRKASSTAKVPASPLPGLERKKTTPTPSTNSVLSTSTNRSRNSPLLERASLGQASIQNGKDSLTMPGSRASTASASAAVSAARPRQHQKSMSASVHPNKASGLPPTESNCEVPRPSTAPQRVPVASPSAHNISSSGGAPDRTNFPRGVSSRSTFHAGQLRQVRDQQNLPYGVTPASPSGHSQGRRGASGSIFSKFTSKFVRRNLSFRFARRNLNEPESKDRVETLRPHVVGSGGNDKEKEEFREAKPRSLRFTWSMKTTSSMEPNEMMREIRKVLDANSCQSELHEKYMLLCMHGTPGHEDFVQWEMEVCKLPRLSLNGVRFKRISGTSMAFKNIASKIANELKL
UniProt Q9Y2H9, sequence (whole entry, looked up): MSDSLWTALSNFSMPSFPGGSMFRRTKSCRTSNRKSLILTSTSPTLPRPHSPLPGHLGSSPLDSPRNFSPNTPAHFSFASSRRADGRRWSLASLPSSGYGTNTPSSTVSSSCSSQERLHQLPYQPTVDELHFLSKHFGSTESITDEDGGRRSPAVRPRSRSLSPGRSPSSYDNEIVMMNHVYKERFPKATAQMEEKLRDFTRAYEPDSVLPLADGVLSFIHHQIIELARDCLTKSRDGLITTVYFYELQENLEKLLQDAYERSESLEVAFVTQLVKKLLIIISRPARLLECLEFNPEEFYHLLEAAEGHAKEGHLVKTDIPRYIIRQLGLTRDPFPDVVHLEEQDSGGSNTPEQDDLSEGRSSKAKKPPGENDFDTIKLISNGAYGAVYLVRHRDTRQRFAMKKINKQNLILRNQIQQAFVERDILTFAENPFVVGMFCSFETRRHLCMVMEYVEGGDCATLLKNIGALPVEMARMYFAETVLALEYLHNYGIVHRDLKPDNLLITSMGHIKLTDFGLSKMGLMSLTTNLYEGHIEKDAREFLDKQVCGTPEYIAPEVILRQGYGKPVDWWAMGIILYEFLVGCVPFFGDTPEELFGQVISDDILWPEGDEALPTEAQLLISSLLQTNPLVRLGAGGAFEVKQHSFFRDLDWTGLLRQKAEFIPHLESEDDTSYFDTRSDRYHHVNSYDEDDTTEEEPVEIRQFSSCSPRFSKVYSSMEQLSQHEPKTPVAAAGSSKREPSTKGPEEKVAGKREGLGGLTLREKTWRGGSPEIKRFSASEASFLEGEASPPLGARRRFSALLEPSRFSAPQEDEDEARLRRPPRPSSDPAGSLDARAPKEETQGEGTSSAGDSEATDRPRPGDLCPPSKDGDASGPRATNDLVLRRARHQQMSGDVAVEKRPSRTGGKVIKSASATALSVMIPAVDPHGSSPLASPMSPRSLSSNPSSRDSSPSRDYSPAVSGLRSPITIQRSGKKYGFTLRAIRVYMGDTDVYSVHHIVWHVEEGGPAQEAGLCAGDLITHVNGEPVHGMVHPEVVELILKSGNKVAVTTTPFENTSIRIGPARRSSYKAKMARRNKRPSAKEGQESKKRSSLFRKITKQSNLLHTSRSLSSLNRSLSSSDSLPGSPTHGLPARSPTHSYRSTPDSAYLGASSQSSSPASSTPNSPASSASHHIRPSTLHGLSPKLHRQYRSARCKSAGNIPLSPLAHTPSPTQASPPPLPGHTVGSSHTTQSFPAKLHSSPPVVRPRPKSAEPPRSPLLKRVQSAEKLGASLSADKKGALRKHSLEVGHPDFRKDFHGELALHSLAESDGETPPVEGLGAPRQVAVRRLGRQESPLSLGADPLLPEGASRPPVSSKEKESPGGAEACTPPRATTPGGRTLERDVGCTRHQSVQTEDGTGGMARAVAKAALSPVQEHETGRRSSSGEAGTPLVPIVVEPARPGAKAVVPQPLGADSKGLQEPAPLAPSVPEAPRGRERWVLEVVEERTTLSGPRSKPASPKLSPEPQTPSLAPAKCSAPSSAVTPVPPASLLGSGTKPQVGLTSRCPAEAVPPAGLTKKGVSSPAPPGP
UniProt Q9BRS2, sequence (whole entry, looked up): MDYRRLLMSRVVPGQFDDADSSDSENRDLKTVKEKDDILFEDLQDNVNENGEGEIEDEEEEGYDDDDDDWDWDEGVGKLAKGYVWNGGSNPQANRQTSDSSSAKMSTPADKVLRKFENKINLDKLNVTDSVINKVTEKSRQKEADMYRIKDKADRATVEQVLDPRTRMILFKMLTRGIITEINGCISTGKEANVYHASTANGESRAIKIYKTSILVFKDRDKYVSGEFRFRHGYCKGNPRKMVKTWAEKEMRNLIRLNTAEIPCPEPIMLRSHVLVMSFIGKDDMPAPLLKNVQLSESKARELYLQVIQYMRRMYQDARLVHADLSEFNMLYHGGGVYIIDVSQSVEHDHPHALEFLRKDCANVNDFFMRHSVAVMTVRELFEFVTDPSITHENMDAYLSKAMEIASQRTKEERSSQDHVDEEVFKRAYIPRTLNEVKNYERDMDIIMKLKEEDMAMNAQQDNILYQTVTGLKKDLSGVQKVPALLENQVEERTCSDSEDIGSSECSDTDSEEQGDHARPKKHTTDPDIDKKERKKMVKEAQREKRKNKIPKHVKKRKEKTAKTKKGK
UniProt Q9UIK4, sequence (whole entry, looked up): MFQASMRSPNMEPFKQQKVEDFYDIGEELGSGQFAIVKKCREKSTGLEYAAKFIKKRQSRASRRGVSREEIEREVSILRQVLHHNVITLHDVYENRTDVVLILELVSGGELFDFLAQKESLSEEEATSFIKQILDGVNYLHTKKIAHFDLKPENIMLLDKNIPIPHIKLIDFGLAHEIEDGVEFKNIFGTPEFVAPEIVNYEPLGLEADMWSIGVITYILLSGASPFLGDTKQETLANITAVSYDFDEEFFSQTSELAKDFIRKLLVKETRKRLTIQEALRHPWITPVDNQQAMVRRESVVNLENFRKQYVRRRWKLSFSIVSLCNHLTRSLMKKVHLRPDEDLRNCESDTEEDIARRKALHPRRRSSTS

Set 1 — concentration: 1 µM; endpoint: remaining binding
SMILES: COc1ccc2[nH]c3c4[nH]c5ccc(OC)cc5c4c4c(c3c2c1)C(=O)NC4=O
RPS6KA5 (Homo sapiens, UniProt O75582); competitive binding scan; N-terminal kinase domain 1: 53%
RIOK1 (Homo sapiens, UniProt Q9BRS2); competitive binding panel; baseline: vehicle: 58%
FLT4 (Homo sapiens, UniProt P35916); competitive binding panel; baseline: vehicle: 71%
DAPK2 (Homo sapiens, UniProt Q9UIK4); competitive binding panel; baseline: vehicle: 4.9%
MAPK8 (Homo sapiens, UniProt P45983); competitive binding; JNK1: 82%
CAMKK1 (Homo sapiens, UniProt Q8N5S9); competitive binding panel; baseline: vehicle: 78%
PRKAA1 (Homo sapiens, UniProt Q13131); competitive binding; AMPK-alpha1: 44%
PLK4 (Homo sapiens, UniProt O00444); competitive binding panel; baseline: vehicle: 1.4%
ROCK1 (Homo sapiens, UniProt Q13464); competitive binding panel; baseline: vehicle: 72%
PRKD3 (Homo sapiens, UniProt O94806); competitive binding panel; baseline: vehicle: 75%

Set 2 — cell line: Huh-7; concentration: 10 µM; time: 24 h; endpoint: viability
CN1CCC(OC(c2ccccc2)c2ccccc2)CC1: 98.4%
C[N+](C)(C)CC(=O)O: 100%
NCc1ccc(S(N)(=O)=O)cc1: 104%
Cc1ccc(/C(=C\CN2CCCC2)c2ccccn2)cc1: 99%
Clc1ccccc1CN1CCc2sccc2C1: 99.4%
CCCCCCc1ccc(O)cc1O: 91.6%
Cc1ccccc1N1C(=O)c2cc(S(N)(=O)=O)c(Cl)cc2NC1C (centres unmarked): 95.8%
CN(C)CC/C=C1/c2ccccc2Sc2ccc(Cl)cc21: 95.8%
CC(N)C(=O)OC(C)(C)Cc1ccc(Cl)cc1 (centres unmarked): 96.5%
NC[C@H](O)c1ccc(O)c(O)c1: 102%
CCOC(=O)Nc1nc2ccccc2[nH]1: 93.6%
CCCCCC(=O)O[C@]1(C(C)=O)CC[C@H]2[C@@H]3CCC4=CC(=O)CC[C@]4(C)[C@H]3CC[C@@]21C: 63.8%
Cc1cc2nc3c(=O)[nH]c(=O)nc-3n(C[C@H](O)[C@H](O)[C@H](O)CO)c2cc1C: 101%
OC[C@@H](O)[C@@H](O[C@@H]1O[C@H](CO)[C@H](O)[C@H](O)[C@H]1O)[C@H](O)[C@@H](O)CO: 89.7%

Set 3 — SMILES: FC(F)(F)c1ccc2c(c1)nc(-c1cccnc1)n2C1CC1; effect on: cell-free assay; method: competition with immobilised ligand; concentration: 1 µM; endpoint: remaining binding
NEK1 (Homo sapiens, UniProt Q96PY6): 100%
MAP3K13 (Homo sapiens, UniProt O43283): 100%
PAK3 (Homo sapiens, UniProt O75914): 100%
Tyrosine-protein kinase ABL1, phosphorylated (ABL1, Homo sapiens, UniProt P00519, F317L): 100%
PRKCH (Homo sapiens, UniProt P24723): 100%
CLK3 (Homo sapiens, UniProt P49761): 100%
MST1R (Homo sapiens, UniProt Q04912): 100%
PHKG1 (Homo sapiens, UniProt Q16816): 100%
PRKD2 (Homo sapiens, UniProt Q9BZL6): 100%
SIK3 (Homo sapiens, UniProt Q9Y2K2): 100%
PAK6 (Homo sapiens, UniProt Q9NQU5): 100%
RET (Homo sapiens, UniProt P07949): 99%
MARK2 (Homo sapiens, UniProt Q7KZI7): 100%
IRAK4 (Homo sapiens, UniProt Q9NWZ3): 100%
Non-receptor tyrosine-protein kinase TYK2, JH2 (TYK2, Homo sapiens, UniProt P29597): 100%
CDK8 (Homo sapiens, UniProt P49336): 100%
TLK1 (Homo sapiens, UniProt Q9UKI8): 100%
CDK16 (Homo sapiens, UniProt Q00536): 100%
ERBB2 (Homo sapiens, UniProt P04626): 100%
HUNK (Homo sapiens, UniProt P57058): 100%
NUAK2 (Homo sapiens, UniProt Q9H093): 100%
MAST1 (Homo sapiens, UniProt Q9Y2H9): 100%
CDK3 (Homo sapiens, UniProt Q00526): 100%
EPHA6 (Homo sapiens, UniProt Q9UF33): 100%
EPHA3 (Homo sapiens, UniProt P29320): 100%

Set 4 — effect on: enzyme activity; action: inhibitor; concentration: 0.5 µM; baseline: control; endpoint: remaining activity
Target: Receptor-interacting serine/threonine-protein kinase 2 (RIPK2, Homo sapiens, UniProt O43353)
UniProt O43353, sequence (whole entry, looked up): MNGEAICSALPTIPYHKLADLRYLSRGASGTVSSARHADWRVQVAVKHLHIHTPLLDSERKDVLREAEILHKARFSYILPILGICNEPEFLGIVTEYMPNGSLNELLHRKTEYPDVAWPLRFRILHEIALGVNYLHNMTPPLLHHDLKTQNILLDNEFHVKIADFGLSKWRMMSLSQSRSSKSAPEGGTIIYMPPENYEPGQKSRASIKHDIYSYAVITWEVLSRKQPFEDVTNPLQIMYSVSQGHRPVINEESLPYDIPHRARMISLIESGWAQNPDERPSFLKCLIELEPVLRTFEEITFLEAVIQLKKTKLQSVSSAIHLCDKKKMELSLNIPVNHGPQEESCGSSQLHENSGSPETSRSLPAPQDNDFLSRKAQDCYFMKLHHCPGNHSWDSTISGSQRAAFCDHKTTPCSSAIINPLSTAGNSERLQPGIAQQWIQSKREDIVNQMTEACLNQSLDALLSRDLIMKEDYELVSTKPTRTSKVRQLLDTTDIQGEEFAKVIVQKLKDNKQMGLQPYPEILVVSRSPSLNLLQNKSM
CCN(CC)CCNC(=O)c1c(C)[nH]c(/C=C2\C(=O)Nc3ccc(Cl)cc32)c1C: 84.1%
Cc1cn(-c2cc(NC(=O)c3ccc(C)c(Nc4nccc(-c5cccnc5)n4)c3)cc(C(F)(F)F)c2)cn1: 110%
CN(C)C[C@H]1CCn2c(c(C3=C(c4cn(C)c5ccccc45)C(=O)NC3=O)c3ccccc32)C1: 94.4%
Cn1nc2c3c(cccc31)C(=O)c1ccccc1-2: 75.7%
c1ccc(-c2cnc(Nc3ccc(OCCN4CCCC4)cc3)s2)cc1: 50.4%
CCN(CC)C(=O)c1ccc(Nc2nc(OCC3CCCCC3)c3[nH]cnc3n2)cc1: 97.2%
O=C1C(Cl)=C(N2C(=O)CCC2=O)C(=O)c2ccccc21: 84.8%
O=C(Nc1cccc(Nc2nccc(Nc3cccc(C(F)(F)F)c3)n2)c1)C1CC1: 81.6%
CN([C@@H](Cc1ccc(OS(=O)(=O)c2cccc3cnccc23)cc1)C(=O)N1CCN(c2ccccc2)CC1)S(=O)(=O)c1cccc2cnccc12: 89.4%
N#C/C(=C\c1ccc(O)c(O)c1)C(=O)NCc1ccccc1: 101%
Nc1cccc(-c2cc3c(Oc4cccc(O)c4)ncnc3[nH]2)c1: 30.5%
O=C1c2ccccc2-c2n[nH]c3cccc1c23: 75.3%
O=c1cc(-c2cccc3c2Sc2ccccc2S3)oc(N2CCOCC2)c1: 114%
Cc1nc2cc3nc(-c4cccs4)cnc3cc2n1C: 89.1%
Ic1cccc(CSc2nnc(-c3ccncc3)o2)c1: 86.3%
COc1cc2c(cc1OC)-c1[nH]nc(Nc3cccc(F)c3)c1C2: 76.3%
c1ccc(-c2[nH]ncc2-c2ccnc3ccccc23)nc1: 64.7%
CCN(CC)CCNC(=O)c1c(C)[nH]c(/C=C2\C(=O)Nc3ccc(F)cc32)c1C: 104%
Cc1cc2ncc(-c3ccccc3)nc2cc1C: 98.3%
N#Cc1c(NC(=O)c2cccc3ccccc23)sc2c1CCCC2: 81.3%
O=C(NC(NC(=S)Nc1ccc(F)c([N+](=O)[O-])c1)C(Cl)(Cl)Cl)C(c1ccccc1)c1ccccc1 (centres unmarked): 97.4%
COc1cc2ncnc(Nc3cccc(Cl)c3)c2cc1OC: 45.4%

A few entries again (set 1):
PRKD3 (Homo sapiens, UniProt O94806); competitive binding panel; baseline: vehicle: 75%
DAPK2 (Homo sapiens, UniProt Q9UIK4); competitive binding panel; baseline: vehicle: 4.9%
RPS6KA5 (Homo sapiens, UniProt O75582); competitive binding scan; N-terminal kinase domain 1: 53%
RIOK1 (Homo sapiens, UniProt Q9BRS2); competitive binding panel; baseline: vehicle: 58%
CAMKK1 (Homo sapiens, UniProt Q8N5S9); competitive binding panel; baseline: vehicle: 78%
